Experimental data collected from several papers.
Lines come from different studies, so protocols differ. ± gives the spread as reported.

With `C[C@H]1[C@H](C)CC[C@]2(C(=O)O)CC[C@]3(C)C(=CC[C@@H]4[C@@]5(C)CC[C@H](O)C(C)(C)[C@@H]5CC[C@]43C)[C@H]12` the IC50 was greater than 10 µM (OVCAR-3; cytotoxicity; 72 h).
The IC50 of `COc1cc(O)c2c(=O)c(O)c(-c3ccc(O)c(O)c3)oc2c1` is reported as 33.1 µM (BV-2; NO release, Griess; 24 h, together with: LPS 10 µg/mL + MLA 10 µM).
For `CC(=O)[C@]1(O)Cc2c(O)c3c(c(O)c2[C@@H](O[C@H]2C[C@H](N)[C@H](O)[C@H](C)O2)C1)C(=O)c1ccccc1C3=O`, the IC50 was 0.378 µM (human mesenchymal stem cells; cell viability, CCK-8; 48 h).
For `Fc1ccc2nc(-c3ccc(OCc4cn(CCN5CCOCC5)nn4)cc3)[nH]c2c1`, the IC50 was 49.6 µM (DND41; cell growth or viability, MTS; 72 h).
`O=C(/C=C/c1ccc(Br)cc1)C(=CC1=CC=C[CH]1[Fe][CH]1C=CC=C1)C(=O)/C=C/c1ccc(Br)cc1` (stereo not shown) has an IC50 of 17.2 µM (RKO; cell growth or viability, MTT).
The IC50 of `[Ala11,D-Leu15]orexin B` is reported as 0.0323 ± 0.0019 µM (rat cortical primary neurons; cAMP formation, antagonist; 15 min, together with: PACAP27 0.1 µM).
With `N#Cc1ccc(C(c2ccc(C#N)cc2)n2cncn2)cc1` the IC50 was 0.0006 µM (MCF7 Tet-off 3β-HSD1 aromatase; DHEA-stimulated proliferation, inhibitor, MTT; 10 days, together with: DHEA 5 nM).
The IC50 of `COc1ccc(/C=C/C(=O)C(=CC2=CC=C[CH]2[Fe][CH]2C=CC=C2)C(=O)/C=C/c2ccc(OC)c(OC)c2)cc1OC` (stereo not shown) is reported as 5.72 µM (RKO; cell growth or viability, MTT).
With `CC/C(=C(\c1ccccc1)c1ccc(OCCN(C)C(=O)CCCCOc2ccc3[nH]cc(CCNC(C)=O)c3c2)cc1)c1ccccc1` the IC50 was 26.3 µM (HT-1080; cell survival, MTT; day 9, dosed days 2, 4, 7).
With `COc1ccc(C[C@H]2COC(=O)[C@@H]2Cc2ccc(OCCCCCCC(=O)NO)c(OC)c2)cc1OC` the IC50 was greater than 5 µM (Kasumi 1; cell growth or viability, CCK-8; 48 h).
`O=C(COc1ccc(-c2nc3ccc(Cl)cc3[nH]2)cc1)N1CCOCC1` has an IC50 of 34 µM (DND41; cell growth or viability, MTS; 72 h).
`O=C(Cc1ccc(Cl)cc1)Nc1nc2ccccc2n1Cc1ccc(Cl)cc1` gave an IC50 of 2.77 ± 1.39 µM (MDA-MB-231-HRE-Luc cells; HIF reporter gene, inhibitor; 24 h, hypoxia 1% O2).
For `Cc1ccc(C(CS(=O)(=O)c2ccccc2)=NN=C2N=C(c3ccc(Br)cc3)CS2)cc1`, the IC50 was 4.52 µM (WM 266-4; cell growth or viability, MTT; 48 h).

Some of these lines once more:
For `Fc1ccc2nc(-c3ccc(OCc4cn(CCN5CCOCC5)nn4)cc3)[nH]c2c1`, the IC50 was 49.6 µM (DND41; cell growth or viability, MTS; 72 h).
